# Measurements of several laboratories.
# Each numbered part is a random draw from the data of one study; scales do not carry over between parts.

# Series 1
# Target: Sal-like protein 4, full length isoform B (SALL4, Homo sapiens, UniProt Q9UJQ4-2, residues 1-616)
# Method: universal PBM
# Form: double-stranded DNA, one strand shown
# Matrix: in vitro
# Tested at: not given
# Notes: 8-mer, flanks averaged, mean of replicates
# Direction: higher = stronger binding
Sequence,E-score
CGGCTGAC,-0.248
CGAGAACG,-0.0902
CTCTTAAG,0.0458
AGGACCAC,-0.234
GTTGGGCA,-0.119
AATTAACA,0.297
ATCTCCAA,0.145
CGCTAAAG,-0.013
ATTAATCG,0.252
CAGCGCTA,-0.113
AGTAACGG,0.0725
TCGGAGCA,-0.116
AAATGTAA,0.291
ACAAAGCA,0.2
GGGAATCA,-0.0585
ATTACACG,0.16
GTTACACA,0.017
CAACTCCC,-0.107
AAAAAGGT,0.0179
AGCCACAG,-0.196
GCCATTTA,0.0725
CCCCGCAG,-0.306
CAATCAAA,0.0942
CCATCTGA,-0.0912
ATGAAAAA,0.341

# Series 2
# Target: Histone acetyltransferase KAT6A, winged helix 1, GST fusion (KAT6A, Homo sapiens, UniProt Q92794, residues 1-85)
# Method: protein binding microarray
# Form: double-stranded DNA, one strand shown
# Matrix: in vitro
# Tested at: not given
# Notes: 8-mer, flanks averaged, mean of 2 arrays, mostly near background
# Reference: not given
# Direction: higher = stronger binding
# Residues (chain): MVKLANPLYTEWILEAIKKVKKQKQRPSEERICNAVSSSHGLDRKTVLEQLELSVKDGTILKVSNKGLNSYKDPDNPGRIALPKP
Sequence,E-score
GTTAGATA,-0.175
ACTGGGAT,-0.23
CATCATGG,-0.103
CCGTCTCG,0.276
GTCGGGTA,0.222
GAAAAATC,-0.185
CACGCCGC,0.372
AAACTACG,0.123
ACGCTCAT,-0.0497
TAGGATCA,-0.219
CGGCTACC,0.307
AGCGCCAG,0.144
ATAAACAC,-0.019
CCATGGCC,-0.00793
CCATTAGA,-0.175
ACATTTCC,-0.0305
ACCTAGAT,-0.148
AAGTCGAG,-0.248
ACCCAGGG,-0.278
AACATGGA,-0.161
ATATGAAC,-0.098
AGTAATAT,-0.029
AACTACTA,-0.0456
CAAAACTC,-0.0911
GCCGTTTA,0.274

# Series 3
# Target: RNA binding protein fox-1 homolog 2, RRM domain, GST-SBP tag (RBFOX2, Homo sapiens, UniProt O43251-10, residues 100-194)
# Method: RNA Bind-n-Seq
# Form: RNA
# Matrix: in vitro
# Tested at: 365 nM
# Notes: natural RNA segment, single round, ends assumed
# Reference: no-protein control
# Direction: higher = stronger binding
# Constant ends, left off below: GGGAGUUCUACAGUCCGACGAUC … UGGAAUUCUCGGGUGCCAA
# Residues (chain): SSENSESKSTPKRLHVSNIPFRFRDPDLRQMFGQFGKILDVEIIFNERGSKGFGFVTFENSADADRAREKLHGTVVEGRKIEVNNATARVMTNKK
Sequence,RBNS enrichment (R)
GGGACCUCUGUUUCUUCGGCUGUUGGAACCUUGAAAUGACCAGAAAGUAGGACAUGUGCAGUCCCACCUGCAUCCAGUGUGGCUCUCUCCAUGGAGACUUGCUCUUCUUC,0.511
CUCUUAGAACAACACACAGAAGAAUUGGUCCAGUUAAGUGCAUGCAAAAAGCCACCAAAUGAAGGGAUUCUAUCCAGCAAGAUCCUGUCCAAGAGUAGCCUGUGGAAUCU,17.3
GAAUAAACUGCCCACUCAGAAGAUAUGUAAUUUGUAUCGUUGUAUAGUUUUAUUGAUUACACUGAUUUAUUCUACCCUAUUUUAUAAUGCAGGACUUUUGUAAUGUUGUC,0.611
CCAUCUCUAAUGCCUUUAAAAGGCUAAAGGGGGCUGAAAGGUCCCUGUAUCAGGUGGUUAACCAAGGAAUCCACAUCAACAGGUGGGGCCAUCUUUAAUGUGGGCACCAG,0.198
CAGCCUGGACAGGGUCUCUGCUGACUGCCAGGGGCGGGGGCUCUGCAUAGCCAGGAUGACGGCUUUCAUGUCCCAGAGACCUGUUGUGCUGUGUAUUUUGAUUUCCUGUG,1.03
AGCCGGUUCUUACCUCUUAGGUGAAGGAGAUGACAUGUUUUUAGAAUUGCUGUGCAAGGCUCACCCUCUCUCUGUCAACACUGGAAUAAACUUUGCCUUUUCUGAGUAGU,0.338
GAGGACUUUUAGAUUUAGUGAAGAUGGUAGGGUGGAAAGACUUAAUUUCCUUGUUGAGAACAGGAAAGUGGCCAGUAGCCAGGCAAGUCAUAGAAUUGAUUACCCGCCGA,1.12
UCAGGCCUGGAUCUUGCUCCUCUGUGAGGAACAAGGGUGCCUAAUAAAUACAUUUCUGCUUUAUUAACUCUUGCUCUGGGAUUGUGGUUUCUGACCUGGCCUCCUGGUUU,0.215
CAUGGGCUCUCCGUGGUGAAGAACAAAGGGUACCCCAAUGGCCUCUCACCAUCACUGUCCUCCAGGGGCCUCGGACUUUUAGUACUCAAGGCAUGAUGUGGCAGUAGCUG,1.78
AGAGGGAGUGGAUAGCAAGUAUCCCAAGAAACCAACCUGUAAGUCAGGUCCAGCCAGUCCAAGCACAUGGCUUCCCAUCUGGGUGAGCCCACUGUCCCACUCCCACAUGU,0.538
CUGCUUUGAUGUAAAACCACAGGUGUGUCGAGGCAGAGGCUGCAGUCCUCUGUGCGCACAGUAGGCCUUUGCUUUACCAUUCAACAGUUCUGACUUAGGCAUGUGUAGAU,1.12
UGUUUGUAGCUGAUUGUUGUGUUUUAUAAAUCUUCUGUUAAGGCAGAAGGGUGAUUAUGAGUGGUUCACAGCAGCCCUUAUAAGCUGGGCCAGAAAAUUUCACUAGGUCA,0.576

# Series 4
# Target: Hepatocyte nuclear factor 3-alpha (Foxa1, Mus musculus, UniProt P35582, residues 1-468, full length assumed)
# Sequence of UniProt P35582 (whole entry, looked up): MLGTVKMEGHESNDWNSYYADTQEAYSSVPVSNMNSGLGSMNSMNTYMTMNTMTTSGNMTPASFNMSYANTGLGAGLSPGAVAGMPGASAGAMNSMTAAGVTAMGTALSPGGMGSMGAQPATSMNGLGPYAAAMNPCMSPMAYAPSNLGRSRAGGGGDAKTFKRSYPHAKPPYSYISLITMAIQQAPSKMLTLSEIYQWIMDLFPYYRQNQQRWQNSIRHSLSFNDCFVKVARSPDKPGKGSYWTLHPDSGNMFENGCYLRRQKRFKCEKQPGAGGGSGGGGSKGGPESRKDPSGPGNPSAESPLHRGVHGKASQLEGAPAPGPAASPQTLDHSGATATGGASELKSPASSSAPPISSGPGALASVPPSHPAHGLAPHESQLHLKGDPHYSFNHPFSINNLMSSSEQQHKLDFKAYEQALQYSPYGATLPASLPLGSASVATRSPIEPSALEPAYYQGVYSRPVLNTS
# Method: EMSA with sequencing
# Form: double-stranded DNA, one strand shown
# Matrix: in vitro
# Tested at: 10 and 20 nM
# Notes: whole designed probe, mean of two concentrations, ends assumed
# Reference: negative control set to 0
# Direction: higher = stronger binding
# Constant ends, left off below: GTGAGCGGTGCCCATTGATGGGGAAC … TTTCACTGGGATCGTGGGGAC
Sequence,normalised bound fraction [ratio]
TTATTTTGATAACATCTCCTTTTCATTAGAACCTTCCTCTCTAGTCCCTCTATTTCAATCTTTAATGTTGTTCTTTGTGCTGTTTCATGCCTTAGATTACATTCTTACACACACACACCCCATTCCTGGAATTTCCCTCCTAGTCGTCTCTGCCTGAAAAAAAACCCTACTAACCCTTTGAGGCCAGCTCAGA,0.0138
TTTTCTGCCGGCAGTGCTTCTAGCAGTTGGGAGAATAAACCCCTCATTCCTGAGGGGAGCCTTGGTGGCCCCTCGCAGTGTTTACCATGTTAAGTAATCTTGGTAGGGTTGCTGAAGATTAGAGACGCCACAAAGAGGAGTGGGTTTGGGGAAGGCGATGAGCTCCATTTTGCACATAGTGAGTGTGAGGTGT,0.113
ATCCACGAACCTGGCCCTGTCTGGTAACCACAGTGAACCATCGCAAGATACAGCACTATGTGCCCAGTTGGGCTGGTAATGACTCACAAATGTGTCATCTCTGGCACATCCTCAGGGACACGGAAGTGTACTTGTTTTTGGAGAGGGACTAGACCTTCATCCTTGAGGTGAAGAAGATTTTCTCTCCAGGGTG,-0.0702
CTTTGAGTTTTCAGAGTGACTCAACACAGTTGAACTATGAATCACTTCAGTATTGTCTGTGCACACCAAAGCCCTGGCATATGGAGCAGGACTGTACACAAGAAAGCTCTTTCCCAGCCCTGAGCTCTCAGAGCTTTCCCTAGGTGTGTGATGAGGCCACTTTCCCCCATCACTTCCCCAAGTCTAGATGTCC,-0.011
TGCAAAGCAGCCTATTTTTTCTTCAATAAAAATTGTTAAGAGAAGTGTGTGTGTCATCTGCAGCACAGCTGTGGGAGGAGTGAGAGGGGTCTTGTTTACACAGTCACCAGCCCTGGCTGACTAGAGCAGAAGAGGGATTTGCTGGCAGAATATCAGTCAACCCTGCCAATGTCTAGTTAGTCTGGAGAACCTG,0.441
TCTAGATTCTTTTCCTTAATCTGTAAATCCTCACAATCTTCCTGTTTTCTCTTCTCCCTATGATCCACTGTGCCCTAAATACCAATGTATTTAAGATTACAGTAAAATTACGATATCTTAGTCATCCTAACTTGGCCAAACAGAAAAATTTATATACATTTGTTAAAATTATATAGCCTCTCTCATTTATCTG,-0.0259
AAGAAAAATTATGGCAAAAAAAAAAAGAAAAAAAAAGAAAAAAAAAGATTTCACCTTTCTTTTCCTTCCATGAGACAAGGGGCTAACAACTGTGTCAACATGAAGTTCTCCACTAGAGGGAACTAATTCCACGTCCTCCAATCGTGAGCTTCATCAGGATGTGTCTGAGAACAGTGCTCTCTCCATGTTTAGA,0.166
GAAAGAAGATCAGTATACATTTGAAGTACAGTAACTTGAGCATATCTTTCCTATTCATCTCACTGAACTTGGATTTCTCTAAATATGGCAATGTAAACAGGCAAATTTTAGATTACTCAACAATCTCTACAGACACTTTAAATTCAAGTACATTTACTCTGTGTAGAGGAAGCACATGTCTAATAAAAGCCTT,0.218

# Excerpt of the above (series 1):
Sequence,E-score
CGCTAAAG,-0.013
CCCCGCAG,-0.306
ATTACACG,0.16
CGAGAACG,-0.0902
AGTAACGG,0.0725
AATTAACA,0.297
AGGACCAC,-0.234
ATCTCCAA,0.145
GTTGGGCA,-0.119
CAATCAAA,0.0942
